# Published values pooled from the literature.
# Numbered parts are unrelated; each lists some results of a single study.

# Block 1 — technique: RNAcompete; molecule type: RNA; medium: in vitro; concentration: 20 nM; setting: 7-mer, probes averaged, single round; relative to: mean of 7-mers; direction: higher = stronger binding
# Target: PABPC1L2, full length, GST fusion (mouse, UniProt A0ABA7IW68)
# Target sequence (chain): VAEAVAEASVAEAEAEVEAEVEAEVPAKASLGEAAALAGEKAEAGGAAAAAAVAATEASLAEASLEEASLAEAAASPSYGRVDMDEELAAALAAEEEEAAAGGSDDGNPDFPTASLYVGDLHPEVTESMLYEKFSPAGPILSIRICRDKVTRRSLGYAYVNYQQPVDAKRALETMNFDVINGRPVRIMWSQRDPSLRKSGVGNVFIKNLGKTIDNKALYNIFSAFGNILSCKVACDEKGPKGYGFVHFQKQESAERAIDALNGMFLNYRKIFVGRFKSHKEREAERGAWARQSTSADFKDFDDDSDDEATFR
Strand,7-mer Z-score
UCACCAC,-0.146
CAAUUGG,0.00254
ACUUCCU,-0.347
AAUGGAC,0.173
CGAAAAG,2.28
UUCUCCA,-0.391
GGGCAUU,0.338
UCGCUUU,-0.36
GUCCAGC,-0.302
CCGUAUC,-0.414
AGCCACU,-0.15
ACUAAUU,-0.15
CCCAGGC,-0.135
AACAACC,0.517
CGGUACC,-0.262
ACGUGGG,0.207
AUGCCAU,-0.117
CCCACCU,-0.465
CUUCGGC,-0.286
UCAGGUC,-0.0935
UAGCACG,-0.159
GGCCACG,-0.00833
GAUAGCA,-0.0518
CUCUACA,-0.231
UAGUAUU,-0.199

# Block 2 — technique: RNA Bind-n-Seq; molecule type: RNA; medium: in vitro; concentration: 200 nM; setting: whole 134-nt RNA, ends assumed; together with: 150 mM KCl; relative to: input library; direction: higher = stronger binding
# Target: Ras GTPase-activating protein-binding protein 1, full length (G3BP1, Homo sapiens, UniProt Q13283)
# Sequence of UniProt Q13283 (whole entry, looked up): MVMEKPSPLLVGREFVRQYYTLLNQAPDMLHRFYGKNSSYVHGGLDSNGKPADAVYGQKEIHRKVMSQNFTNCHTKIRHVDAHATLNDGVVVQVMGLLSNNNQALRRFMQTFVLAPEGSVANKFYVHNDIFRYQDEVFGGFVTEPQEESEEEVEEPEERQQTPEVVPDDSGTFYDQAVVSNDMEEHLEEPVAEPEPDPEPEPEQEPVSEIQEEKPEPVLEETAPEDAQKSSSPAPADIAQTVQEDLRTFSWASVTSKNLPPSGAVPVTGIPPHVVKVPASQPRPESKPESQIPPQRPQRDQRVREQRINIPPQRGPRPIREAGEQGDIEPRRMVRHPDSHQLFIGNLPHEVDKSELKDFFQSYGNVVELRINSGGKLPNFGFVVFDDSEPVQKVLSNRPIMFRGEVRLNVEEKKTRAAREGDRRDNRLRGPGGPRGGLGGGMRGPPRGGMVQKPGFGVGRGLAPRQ
Strand,log2 enrichment
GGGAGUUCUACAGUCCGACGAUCUGGCCCUGGUGGCAUGCGGGGAGGAAGAGGUGGCCUCAUGGAUCGUGGUGGUCCCGGUGGAAUGUUCAGAUGUGGCCGUGGUGGAGACAGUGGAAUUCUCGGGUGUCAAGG,0.363
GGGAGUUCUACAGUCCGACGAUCUGGGAGGUGGAUUUUGUUUAUUUUUUUAGCUCAUUUCCAGGGGUGGGAAUUUUUUUUUAAUAUGUGUCAUGAAUAAAGUUGUUUGUGAAAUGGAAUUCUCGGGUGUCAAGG,0.7
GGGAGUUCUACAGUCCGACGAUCCUCAAGUCCUGUGCUACACAUCGUAUGUACCGAAUCGGUUUGGUUUGGUUUGGAAAGUAUUAUGUUACGCCGUUCGGAUCUGCACUUCCAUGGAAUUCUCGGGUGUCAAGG,-0.45
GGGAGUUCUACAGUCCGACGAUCGCAGGGAGUAAAAACAAAUGGAAAUGCUUCGGAUAGUGGCAGGGGUGGGGGUUGCUAAGGAAAGGGUGGGAUGGGAGUGGGUAAAGAGUUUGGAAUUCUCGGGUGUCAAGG,0.938
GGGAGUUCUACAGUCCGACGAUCUAACUUUAGAGGAGGAUCUGAUGGAUAUGGCAGUGGACGUGGAUUUGGGGAUGGCUAUAAUGGGUAUGGAGGAAGACCUGGAGGUGGCAAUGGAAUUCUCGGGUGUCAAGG,0.135
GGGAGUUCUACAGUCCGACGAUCAAGUCCUGUGCUACACAUCGUAUGUACCGAAUCGGGGAAAGGGGUUUGGGGAGGGGAAAGUAUUAUGUUACGCCGUUCGGAUCUGCACUUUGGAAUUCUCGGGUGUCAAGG,0.855
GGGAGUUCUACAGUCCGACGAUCAAGUCCUGUGCUACACAUCGUAUGUACCGAAUCGGGGCCCGGGCCCGGGCCCGGGGAAAGUAUUAUGUUACGCCGUUCGGAUCUGCACUUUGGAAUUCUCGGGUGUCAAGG,-0.655
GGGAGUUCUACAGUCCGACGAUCUGUUCCUGUUGAUGAAAAUCUUUUCACUGGAGAGGAUUUGGAUGAACUAGAAGAAGAAUUAAAUACACUUGAUUUAGAAGAAUGACACCAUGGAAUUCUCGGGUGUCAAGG,-0.155
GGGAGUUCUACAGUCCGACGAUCUGGCCCUGGUGGCAUGCGGGGAGGAAGAGGUGGCCUCAUGGAUCGUGGUGGUCCCGGUGGAAUGUUCAGAGGUCGCCGUGGUGGAGACAGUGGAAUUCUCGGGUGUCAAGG,-0.244
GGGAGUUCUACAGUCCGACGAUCGCAUAAUGGAUAUUUUUUAACUUGGCGAGAUGUGUCUCUCAAUCCUGUGGCUUUGGUGAGAGAGUGUGCAGAGAGCAAUGAUAGCAAAUAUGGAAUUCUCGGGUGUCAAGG,0.545

# Block 3 — technique: RNA Bind-n-Seq; molecule type: RNA; medium: in vitro; concentration: 365 nM; relative to: no-protein control; direction: higher = stronger binding
# Target: RNA binding protein fox-1 homolog 2, RRM domain, GST-SBP tag (RBFOX2, Homo sapiens, UniProt O43251-10, residues 100-194)
# Setting: natural RNA segment, single round, ends assumed
# Target sequence (chain): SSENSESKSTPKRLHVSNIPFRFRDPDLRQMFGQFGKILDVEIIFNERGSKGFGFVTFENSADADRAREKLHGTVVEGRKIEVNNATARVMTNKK
Strand,RBNS enrichment (R)
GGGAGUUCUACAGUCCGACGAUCCAUCUCCAGGAGGGCCCGGGGCUCCUGCGUCCCUCGGGGUCUGUCAUGUGACCUGUUUGGCCCCUAACUGUCCCUUCUUUUCACUGCUUCUGUCUGACACCAUCUCCCUUUGGAAUUCUCGGGUGCCAA,1.06
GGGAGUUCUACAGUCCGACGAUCGUAUAUGUCUGUCUUUCUCAUUAGAUUAUACGCUCCUUGUGGGCAGGGUCUGUCUUUUUCACCUUUGUACCUUUCAUGGCAUCUAGCAUAGUGCUUUGCACAUAGUCGUCUGGAAUUCUCGGGUGCCAA,0.838
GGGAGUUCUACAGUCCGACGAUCAUGUGUCCCCCAACUCCACCCCUCACAGUUUGGGCCUGUUUCUGGCAAAGAGUCAGGAAGGUUACUGAAUUAGGGAACAUUUUCUGCACCUUCUGAUUUUACUUAAGCAGUGGAAUUCUCGGGUGCCAA,0.286
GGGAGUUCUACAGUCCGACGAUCUCCAAAGAAAACCUAAUUUUCUCAGUGGGUGAACUCAUCAUUGCUGGAACUGAAACUACAACCAAUGUGCUACGGUGGGCGAUUCUUUUCAUGGCCCUUUAUCCUAAUAUUGGAAUUCUCGGGUGCCAA,0.459
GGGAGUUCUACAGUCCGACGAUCGCCCCCCUGUCUGAUGUUGAUGAGGGGUCAUACCAGCCAGGGAGACCCUCUGGGAGGAAGCUGCCACACACAAGGACUCUGGAAGUAUCCAGAUGUGAGCCCAGCCAGGGUGGAAUUCUCGGGUGCCAA,0.515
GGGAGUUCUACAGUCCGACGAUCCACGCACGCUCUACUUUGAUAUUAAAACCCACAUAACAUAUAUUUAAUAAAUUCUAUCUAUUUUGUUUAGUAGUGUCUCUUUUCUAUUCCAUCCAUGACUACGUAGAAGGUGGAAUUCUCGGGUGCCAA,1.96
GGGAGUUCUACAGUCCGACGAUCCUCCCUCCGAUGUUGGACUGCCUGAUGCUCCCAAUGACAUAUCCAAUGCUCCUGGCAUUUCUGGAGCAGGAGGUUGUCAGGACAACACAUAUAACCACCAAGGAUGUGUUUGGAAUUCUCGGGUGCCAA,0.467
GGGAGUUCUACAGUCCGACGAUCCAUCUUAUUUGAGAUGGGGGUGGGAACGAAUUAAAAUAUGAUAGAGAACUAUAUGCAGAUUUUAAAAUCUAGUCAGUACUAGCAUCUAUAAAGGGCUUUUCUGAAAUUUAUGGAAUUCUCGGGUGCCAA,0.537
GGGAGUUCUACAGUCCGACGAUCGAGAAACCUGUAUCUUUCUAUGCUGCUUUUAUAUCUGUAUGUAUUAGUGAUAUUUCUCUAGUAGUUAAAAAAAAAAAAAGGAAAAAAAGACUCUUUUUGGUUGUCCUCAAUGGAAUUCUCGGGUGCCAA,0.941
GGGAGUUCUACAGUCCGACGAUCACAAAAUAAUGGUAAUUAAAGAAGCAAAGCUUCAGCCAUACUAAGGGGUUUCUUGUCUGCAGAGUGUAGAGACUCAUCAGUGUACAGAUGAGACCUGCUCAUCGUGCGACUGGAAUUCUCGGGUGCCAA,0.368
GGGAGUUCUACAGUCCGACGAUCACUGUAUUAAUAAACAUACAACACAAGCUGGCCUUGUGUUGCUGGUUCCUAUUCAGUAUUUCCUGGGGAUUGUUUGCUUUUUAAGUAAAACACUUCUGACCCAUAGCUCAUGGAAUUCUCGGGUGCCAA,0.177
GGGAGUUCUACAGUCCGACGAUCUUUGUAAAUAUCUUUGUGAAUAUUUUAGUAUUGUCUUUGAUAAUAUUCAACAUUUUCAUGACCUGGUUAUAGCCUUUGCUGGUGUUUUUAAAAUAUCUUGACUCAGUGACUGGAAUUCUCGGGUGCCAA,0.359

# Block 4 — technique: universal PBM; molecule type: double-stranded DNA, one strand shown; medium: in vitro; concentration: not given; direction: higher = stronger binding
# Target: Sal-like protein 4, full length isoform B (SALL4, Homo sapiens, UniProt Q9UJQ4-2, residues 1-616)
# Setting: 8-mer, flanks averaged, mean of replicates
# Residues (chain): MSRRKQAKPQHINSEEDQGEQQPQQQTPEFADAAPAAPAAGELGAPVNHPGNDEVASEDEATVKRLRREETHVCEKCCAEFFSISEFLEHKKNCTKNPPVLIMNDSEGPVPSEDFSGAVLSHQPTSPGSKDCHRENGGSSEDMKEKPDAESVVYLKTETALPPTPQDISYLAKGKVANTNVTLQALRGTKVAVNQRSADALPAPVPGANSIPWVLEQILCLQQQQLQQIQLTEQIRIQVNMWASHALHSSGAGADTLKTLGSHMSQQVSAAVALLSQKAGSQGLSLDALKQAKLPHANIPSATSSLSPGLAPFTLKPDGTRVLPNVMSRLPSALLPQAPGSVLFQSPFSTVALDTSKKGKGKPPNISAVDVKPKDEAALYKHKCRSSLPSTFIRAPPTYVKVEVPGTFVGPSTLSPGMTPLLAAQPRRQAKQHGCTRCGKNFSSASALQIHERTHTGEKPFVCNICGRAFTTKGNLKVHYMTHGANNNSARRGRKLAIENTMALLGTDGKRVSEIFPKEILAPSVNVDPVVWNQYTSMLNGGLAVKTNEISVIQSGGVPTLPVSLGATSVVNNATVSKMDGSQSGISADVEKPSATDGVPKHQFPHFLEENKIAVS
Strand,E-score
AGCTATGC,0.0163
AGCAAACT,0.0465
GCATTCAA,0.111
ATCGGCAC,-0.0516
CACACCCA,-0.0886
GGTGTTGA,-0.035
CTCAAGCA,-0.00775
ACATGCGT,-0.0155
GCGTCGAC,-0.122
TACTTTAA,0.238
GTCCTAAC,0.0632
CATTCAAA,0.211
GAAAACTA,0.116
GAAAAAAC,0.226
ATTAGAGA,0.132
ATGCTAAC,0.073
CCAGAAAG,-0.102
AACGACCG,-0.117

# Block 5 — technique: protein binding microarray; molecule type: double-stranded DNA, one strand shown; medium: in vitro; concentration: not given; relative to: not given; direction: higher = stronger binding
# Target: Histone acetyltransferase KAT6A, winged helix 1, GST fusion (KAT6A, Homo sapiens, UniProt Q92794, residues 1-85)
# Setting: 8-mer, flanks averaged, mean of 2 arrays, mostly near background
# Residues (chain): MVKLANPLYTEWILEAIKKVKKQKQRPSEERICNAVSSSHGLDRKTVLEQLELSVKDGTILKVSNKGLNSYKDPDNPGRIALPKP
Strand,E-score
GTGCGTTA,0.186
AAATCGTA,-0.0466
CTAGATGA,-0.117
AGTAGACT,-0.049
ACTGTCAG,-0.03
CAGATTCA,-0.32
AGGTACGG,0.27
ATAGAGAA,-0.182
AGTTAAAG,-0.0423
ATACTGCA,-0.0736
CCCCGCTA,0.347
ATGGACAC,-0.0985
CCGAGAGC,0.132
CTCACCAG,-0.266
TCGATAGA,-0.123
AACGACTG,-0.0254
GCTAGAGC,0.0512
